Published values gathered from unrelated publications.
Protocols differ between the studies behind these lines.
Target: Serine/threonine-protein kinase SBK1 (SBK1, Homo sapiens, UniProt Q52WX2)

Compound	test	conditions	scale	endpoint	result
CN1CC[C@@H](COc2cnc(C#N)cc2-c2ccn3nc(NC(=O)C4CC4)cc3c2)C1	enzyme activity, inhibitor	1 µM		inhibition	1%
Cc1ccc(-c2c(/C=C(\C#N)C(=O)NC(C)C)n(CCCO)c3ncnc(N)c23)cc1	cell-free assay, competition with immobilised ligand	1 µM		remaining binding	100%
COc1cc(Nc2nc(C)cc(-c3cnn4nc(OC)ccc34)n2)cc(C(F)(F)F)c1	binding, competition with immobilised ligand	1 µM		remaining binding	87%
C=CC(=O)N1CCCC(n2c(=O)c3ncccc3n(Cc3ccc(Oc4ccccc4)cc3)c2=O)C1 (stereo not shown)	cell-free assay, competition with immobilised ligand	1 µM		remaining binding	49%
Nc1ncc(-c2cc(-c3cnn(CC(F)(F)F)c3)ncc2F)nc1C(=O)NC1CNCC(F)C1 (stereo not shown)	enzyme activity	1 µM	relative to: DMSO control	remaining activity	102%
CCN1CCN(Cc2ccc(C(=O)Nc3ccc(C)c(NCc4cnc5[nH]ccc5c4OC)c3)cc2C(F)(F)F)CC1	binding, competition with immobilised ligand	1 µM		remaining binding	68%
CCn1cc(C(=O)O)c(=O)c2c(N)c(F)c(NC3CCCCC3)cc21	kinase activity	0.1 µM, with: ATP at Km		inhibition	-16.1%
C=CC(=O)N1Cc2nc(-c3cc(-c4cc(Cl)cnc4Cl)c(F)cc3F)n(-c3ccncn3)c2C1	cell-free assay, inhibitor	1 µM		inhibition	1.4%
Cc1cnc2nc1Nc1cccc(c1)COC/C=C/COCc1cc(ccc1OCCN1CCOCC1)N2	binding, competition with immobilised ligand	0.1 µM		remaining binding	94%
CC(C)=CC1OC(C)(C)C2C=C3C(=O)C(Cl)=CC(O)C3C3C(O)C4OC4C(=O)C132 (stereo not shown)	cell-free assay, competition with immobilised ligand	10 µM		remaining binding	67%
O=C(Cc1ccc(OCc2ccccc2)cc1)NC1(C(=O)O)CCN(C(=O)c2ccc(-c3cccc(Cl)c3)cc2)CC1	enzyme activity, inhibitor	10 µM		activity vs control	103%
C=CC(=O)N1CCc2ccc(-n3c(=O)ccc4cnc5ccc(-c6cnn(C)c6)cc5c43)cc21	KINOMEscan	1 µM	relative to: DMSO control	remaining binding	42%
Nc1ncc2c(n1)-c1c([nH]c3ccc(C4=CCOCC4)cc13)CCC2	binding, competition with immobilised ligand	1 µM		remaining binding	91%
CN1CCN(Cc2ccc(-c3ccc(CO[C@H]4CCC[C@@H]4NC(=O)c4cc(-c5cnn(C)c5)cnc4N)cc3)cc2)CC1	enzyme activity, inhibitor	0.1 µM		inhibition	10%
CNC(=O)C[C@H](Cc1ccc(C#N)cc1)NC(=O)c1cc(-c2ccc(CN[C@H](C)c3ccc(C)cc3)o2)ccc1Cl	enzyme activity, inhibitor	1 µM		activity vs control	94%
CNC1C[S+]2CC[S+]3CC[S+](C1)[Ru-4]321([N]=C=S)[n]2c3ccc(OC)cc3c3c4c(c5cc(F)c[n+]1c5c32)C(=O)NC4=O (stereo not shown)	KinomeScan	0.1 µM	relative to: untreated	remaining binding	92%
CNC(=O)C1CCN(c2cc(C)c(F)cc2NC(=O)c2ccc(-c3cc(O)ccc3C)c(C)c2)CC1	binding, competition with immobilised ligand	1 µM		remaining binding	91%
COc1c(Cl)cccc1Nc1c(-c2ccncc2C#C[C@@]2(C)CCCN2C(=O)/C=C/CN(C)C)[nH]c2c1C(=O)NCC2	binding, competition with immobilised ligand	3 µM		remaining binding	94%
COc1cc(Nc2nccc(-c3cnn4nc(OC)ccc34)n2)cc(C(F)(F)F)c1	binding, competition with immobilised ligand	1 µM		remaining binding	84%

Repeated from above:
Compound	test	conditions	scale	endpoint	result
CN1CCN(Cc2ccc(-c3ccc(CO[C@H]4CCC[C@@H]4NC(=O)c4cc(-c5cnn(C)c5)cnc4N)cc3)cc2)CC1	enzyme activity, inhibitor	0.1 µM		inhibition	10%
